{"data": "Published values collected from several papers", "note": "Each line is one published result; not all experiments were run side by side. ± marks the error that the study gave.", "UniProt Q12933, sequence (whole entry, looked up)": "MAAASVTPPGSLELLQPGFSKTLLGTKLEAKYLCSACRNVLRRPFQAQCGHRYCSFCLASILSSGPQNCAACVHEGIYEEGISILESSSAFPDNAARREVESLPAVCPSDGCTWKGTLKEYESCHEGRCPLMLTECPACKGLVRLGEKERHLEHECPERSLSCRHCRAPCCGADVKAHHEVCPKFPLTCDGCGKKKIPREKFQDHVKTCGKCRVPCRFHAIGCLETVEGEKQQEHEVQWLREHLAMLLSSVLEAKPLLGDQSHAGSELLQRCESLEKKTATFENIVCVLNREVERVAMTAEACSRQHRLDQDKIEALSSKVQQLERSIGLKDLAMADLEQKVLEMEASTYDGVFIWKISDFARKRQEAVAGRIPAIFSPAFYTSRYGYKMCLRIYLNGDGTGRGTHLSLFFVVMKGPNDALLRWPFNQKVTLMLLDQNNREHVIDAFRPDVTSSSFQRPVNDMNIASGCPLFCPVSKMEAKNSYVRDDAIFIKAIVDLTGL", "UniProt P36544, sequence (whole entry, looked up)": "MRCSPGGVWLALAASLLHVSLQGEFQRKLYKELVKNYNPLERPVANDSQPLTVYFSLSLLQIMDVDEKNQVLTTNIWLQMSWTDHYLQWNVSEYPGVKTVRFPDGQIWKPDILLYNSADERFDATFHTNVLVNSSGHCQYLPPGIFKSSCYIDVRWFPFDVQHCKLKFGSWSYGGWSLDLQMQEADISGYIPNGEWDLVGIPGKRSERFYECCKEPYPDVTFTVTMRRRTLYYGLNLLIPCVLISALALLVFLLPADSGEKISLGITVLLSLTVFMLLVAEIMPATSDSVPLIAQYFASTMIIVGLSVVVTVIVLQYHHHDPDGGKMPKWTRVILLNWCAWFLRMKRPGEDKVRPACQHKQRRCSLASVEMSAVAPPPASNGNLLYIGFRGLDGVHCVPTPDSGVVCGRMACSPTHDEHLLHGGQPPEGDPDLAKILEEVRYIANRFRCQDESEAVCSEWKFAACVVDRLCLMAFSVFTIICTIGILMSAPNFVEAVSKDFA"}
{"Structure (SMILES)": "CN1CCN(C2(CNC3CCN(c4cccc(-c5cc6cc(F)ccc6[nH]5)c4)CC3)CCC2)CC1", "tested on": "786-0", "measurement": "GI50", "value": "1410 nM"}
{"Structure (SMILES)": "COc1cc(CCC[P+](c2ccccc2)(c2ccccc2)c2ccccc2)c(OC)c2c1OCO2.[I-]", "tested on": "SNB-19", "test": "SRB", "measurement": "LC50", "value": "-4.38 log M"}
{"Structure (SMILES)": "CC(C)N1CCC(NC2CCN(c3cccc(-c4cc5cc(F)ccc5[nH]4)c3)CC2)CC1", "tested on": "CCRF-CEM", "measurement": "CC50", "value": "7890 nM"}
{"Structure (SMILES)": "C[C@]1(CO)Cc2ncn(-c3ccc(C#N)c(Cl)c3)c2C(=O)O1", "test system": "healthy humans", "setting": "10 mg, fed", "measurement": "drug-related Fatigue incidence", "value": "0%"}
{"Structure (SMILES)": "O=C1CCP(=S)(c2ccccc2)CC1", "tested on": "PC-3", "test": "annexin V/PI flow cytometry", "setting": "IC50, 72 h", "measurement": "early apoptotic cells", "value": "1.15%"}
{"Structure (SMILES)": "Oc1ccc(C2(c3ccc(O)cc3)c3ccccc3-c3ccccc32)cc1", "tested on": "HepG2 spheroids", "test": "Hoechst flow cytometry", "setting": "10 µM, 24 h", "measurement": "G2 phase cells", "value": "20.6 ± 2.59%"}
{"Structure (SMILES)": "CC[C@H](C)[C@@H]1NC(=O)[C@@H]2CCCN2C(=O)[C@H](CC(C)C)NC(=O)[C@H](CC(C)C)NC(=O)CNC(=O)[C@@H](NC(=O)[C@@H](NC(=O)[C@H](CC(=O)O)NC(=O)CNC(=O)[C@@H](NC(=O)[C@H](C)NC(=O)CNC(=O)[C@H](CCCCN)NC(=O)[C@H](CC(C)C)NC(=O)[C@H](CC(C)C)NC(=O)[C@H](CCCCN)NC(=O)CNC(=O)[C@@H](NC(=O)[C@@H](N)CC(C)C)C(C)C)C(C)C)C(C)C)CSSC[C@@H](C(=O)O)NC1=O", "test": "RNA-seq, measured: Lmnb1", "test system": "mouse, traumatic brain injury model, frontal cortex and hippocampus", "setting": "dose not given", "scale": "baseline: TBI alone", "measurement": "log2 fold change", "value": -1.55}
{"Structure (SMILES)": "Nc1ncc(-c2nc(N3CCOCC3)nc(N3CCOCC3)n2)c(C(F)F)n1", "tested on": "TT", "setting": "72 h", "measurement": "GI50", "value": "331 nM"}
{"Structure (SMILES)": "C[C@H]1[C@H](C)CC[C@]2(C(=O)O)CC[C@]3(C)C(=CC[C@@H]4[C@@]5(C)CC[C@H](O)C(C)(C)[C@@H]5CC[C@]43C)[C@H]12", "tested on": "MCF7", "test": "cell growth, MTT", "setting": "7.25 µg/mL, 48 h", "measurement": "cell survival", "value": "73.33 ± 0.52%"}
{"Structure (SMILES)": "CO[C@H]1C[C@@H]2CC[C@@H](C)[C@@](O)(O2)C(=O)C(=O)N2CCCC[C@H]2C(=O)O[C@H]([C@H](C)C[C@@H]2CC[C@@H](OC(=O)NCCOCCOCCOCCOCCOCCOCCOCCOCCC(=O)N3CCc4cc(Cn5nc(-c6ccc7oc(N)nc7c6)c6c(N)ncnc65)ccc4C3)[C@H](OC)C2)C[C@@H](O)[C@H](C)/C=C(\\C)[C@@H](O)[C@@H](OC)C(=O)[C@H](C)C[C@H](C)/C=C/C=C/C=C/1C", "test system": "patients with advanced solid tumours", "setting": "intravenous, 6 mg weekly, any grade", "measurement": "diarrhoea incidence", "value": "16.7%"}
{"Structure (SMILES)": "CC(C)=CCc1c(O)cc(O)cc1-c1cc2ccc(O)c(CC=C(C)C)c2o1", "tested on": "3T3", "test": "cell growth, MTT", "setting": "3.6 µg/mL, 48 h", "measurement": "cell survival", "value": "90.37 ± 0.52%"}
{"Structure (SMILES)": "Nc1ncnc2c1ncn2[C@@H]1O[C@@H]2COP(=O)(O)O[C@H]3[C@@H](O)[C@H](n4cnc5c(=O)[nH]cnc54)O[C@@H]3COP(=O)(O)O[C@H]2[C@H]1O", "tested on": "HFF-1", "test": "RNA sequencing, measured: Signal Transduction", "setting": "upregulated pathway", "scale": "baseline: Zika virus alone", "measurement": "pathway fold enrichment", "value": 1.54}
{"Structure (SMILES)": "COc1cc2c(Oc3ccc4[nH]c(C)cc4c3F)ccnc2cc1OCC1(N)CC1", "test system": "paediatric recurrent refractory sarcoma", "setting": "8 mg/kg", "measurement": "grade 1 or 2 sinus arrhythmia", "value": "6.7%"}
{"Structure (SMILES)": "Oc1cc(O)cc(-c2cc3ccc(O)cc3o2)c1", "tested on": "MCF7", "test": "cell growth, MTT", "setting": "50 µg/mL, 48 h", "measurement": "cell survival", "value": "57.58 ± 0.42%"}
{"Structure (SMILES)": "C[C@H]1CN(c2n[nH]c3nc(N[C@H]4CC[C@H](NS(=O)(=O)CCC(F)(F)F)CC4)ncc23)CCO1", "tested on": "TNF receptor-associated factor 2 (Homo sapiens, UniProt Q12933)", "test": "Kinobeads competition, measured: TRAF2", "setting": "0.16 µM, unit not given", "scale": "baseline: vehicle", "measurement": "remaining binding", "value": 1.05}
{"Structure (SMILES)": "COc1c(CCC[P+](c2ccccc2)(c2ccccc2)c2ccccc2)cc2c(c1OC)OCO2.[I-]", "tested on": "BT-549", "test": "SRB", "measurement": "GI50", "value": "-5.91 log M"}
{"Structure (SMILES)": "COc1cc(Nc2ncc(F)c(Nc3ccc4c(n3)NC(=O)C(C)(C)O4)n2)cc(OC)c1OC", "tested on": "Neuronal acetylcholine receptor subunit alpha-7 (CHRNA7, Homo sapiens, UniProt P36544)", "setting": "together with: methyllycaconitine", "measurement": "IC50", "value": "> 10000 nM"}
{"Structure (SMILES)": "COc1c(C)c2c(c(O)c1C/C=C(\\C)CCC(=O)O)C(=O)OC2", "tested on": "MINO", "test": "cell proliferation", "test system": "blood cancer", "measurement": "IC50", "value": "229 nM"}
{"Structure (SMILES)": "CN1CCN(S(=O)(=O)c2cc([N+](=O)[O-])ccc2N(CCOS(C)(=O)=O)CCOS(C)(=O)=O)CC1", "tested on": "sample B B-ALL PDX cells", "test": "cell viability", "test system": "ex vivo", "setting": "48 h, together with: AKR1C3 inhibitor", "scale": "baseline: with inhibitor over alone", "measurement": "IC50 fold change", "value": 18.8}
{"note": "A few entries again:"}
{"Structure (SMILES)": "COc1cc(Nc2ncc(F)c(Nc3ccc4c(n3)NC(=O)C(C)(C)O4)n2)cc(OC)c1OC", "tested on": "Neuronal acetylcholine receptor subunit alpha-7 (CHRNA7, Homo sapiens, UniProt P36544)", "setting": "together with: methyllycaconitine", "measurement": "IC50", "value": "> 10000 nM"}
{"Structure (SMILES)": "Oc1ccc(C2(c3ccc(O)cc3)c3ccccc3-c3ccccc32)cc1", "tested on": "HepG2 spheroids", "test": "Hoechst flow cytometry", "setting": "10 µM, 24 h", "measurement": "G2 phase cells", "value": "20.6 ± 2.59%"}
